Experimental data from different studies.
A part holds a random share of what one study measured.

Set 1 — technique: protein binding microarray; form: double-stranded DNA, one strand shown; matrix: in vitro; concentration: not given; relative to: not given; reading: higher = stronger binding; quantity: E-score
Target: Histone acetyltransferase KAT6A, winged helix 1, GST fusion (KAT6A, Homo sapiens, UniProt Q92794, residues 1-85)
Setting: 8-mer, flanks averaged, mean of 2 arrays, mostly near background
Target sequence (chain): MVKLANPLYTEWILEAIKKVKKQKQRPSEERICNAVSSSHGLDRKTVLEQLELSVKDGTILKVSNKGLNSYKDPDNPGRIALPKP
GCAATAGA: 0.00255
GCACGGGA: 0.293
CGCTCAAC: 0.232
CGAATCCA: -0.126
GAGTCGAA: -0.203
CCAAAGGC: 0.0138
AGTCCGAT: -0.0281
GTTGGCTA: 0.0419
ACAAGATA: -0.164
AGCATCCA: -0.226
AATACCAA: 0.0118
TCGTACAA: 0.0193
GTGGATTA: -0.104
ACACACAA: -0.173
AGGAGAAC: -0.119
CTGCATGC: 0.0111
CCGTTAAA: 0.147
GGTAGTAA: -0.129
AGTGAACG: -0.115
AAACATTT: -0.136
TAGGAACA: -0.142
ATTTCGTG: -0.18
CCATGCAA: -0.0615

Set 2 — technique: universal PBM; form: double-stranded DNA, one strand shown; matrix: in vitro; concentration: not given; reading: higher = stronger binding; quantity: E-score
Target: Sal-like protein 4, full length isoform B (SALL4, Homo sapiens, UniProt Q9UJQ4-2, residues 1-616)
Setting: 8-mer, flanks averaged, mean of replicates
GTGAGTGA: -0.0975
AGCTGTTA: 0.0778
ACGGGATC: -0.0449
AAAAGTGT: 0.0233
CTTGACTC: -0.163
CCTACAAG: 0.0323
ACCACCAG: -0.139
AAATTCCT: 0.0407
ATGTCGTG: -0.0282
AGCCTGTG: -0.169
CAAACGAG: -0.0735
AACGGTAG: -0.0561
ATGTGAGC: -0.118
CCTGCGAG: -0.174
CTGTCGTC: -0.118
AGGGATAT: 0.22
CAATTTAG: 0.152
AAACACCT: 0.0385
CCCCATGA: -0.0975
CGACGCGA: -0.319
AACCTCAG: -0.137
ATGAACGG: 0.0415
CCACATGG: -0.169
CTAAAGCC: 0.0266
AGGACACA: 0.148

Set 3 — technique: RNA Bind-n-Seq; form: RNA; matrix: in vitro; concentration: not given; setting: RNA with constant flanks, ends assumed; relative to: input RNA pool; reading: higher = stronger binding; quantity: bound/input enrichment
Target: RING finger protein unkempt homolog, zinc fingers 1-6, GST-SBP tag (UNK, Homo sapiens, UniProt Q9C0B0, residues 30-357)
Constant ends, left off below: GGGAGUUCUACAGUCCGACGAUC … CAACAGAGGAUUGAGCAUCA
Construct (chain): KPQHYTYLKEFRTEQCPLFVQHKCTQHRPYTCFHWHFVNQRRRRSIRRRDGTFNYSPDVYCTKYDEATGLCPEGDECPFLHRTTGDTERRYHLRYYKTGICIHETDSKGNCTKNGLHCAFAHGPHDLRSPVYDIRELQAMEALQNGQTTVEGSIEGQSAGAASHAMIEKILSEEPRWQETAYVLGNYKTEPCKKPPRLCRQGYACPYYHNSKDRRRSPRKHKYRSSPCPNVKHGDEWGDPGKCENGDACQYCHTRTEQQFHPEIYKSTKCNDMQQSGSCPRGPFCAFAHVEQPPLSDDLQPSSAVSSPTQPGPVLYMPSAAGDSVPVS
ACUUCUGGAGGUGGGUUGGACCUCCGCGGAAUGUCUAGCUUCCAAACUUUGGCUGUUGGUAUCCGAGGCAGAUUUUCUUCUCGAGUCUCUCCUGCCUUGGAUGGGCCUCAAUAGGAGUGG: 0.514 ratio
CAAUAUAAGGAUGAUAAUUUUGGAGAAGGAAAUGAUGGUGGAAUAUUAGAUGACAAACUUAUCCGUAAUAAUGAUGGCGGUAUCUUUGAUGAUCCCCCUGCCCUCUCUGAGGCAGGGGUG: 2.18 ratio
AAUGAGGCCUCACCCCUGGACCCCAUUACUGAGGAAGAUGAGAAAUCCGACCAGUCAGGCCGUAAGCUGCUCCCAGGCAAGAAGUCUUCAGAACGGCCUAGUCUCUUCCAGACAGACUUG: 0.112 ratio
CCCGUCUUGGCUUAUCCACUUUGACUCCUUUGAGCCGUUUGGAGGGGCGGUUUCUGGCCGUUGUGGCUUUUAUGCUUUCAAAGAAUUUCUUCAGUCCAGAGAAUUCCUCCUGGCAGCCCU: 0.221 ratio
UUGGGGUAACGUGCACUGUAAGACGUAUGUAACAUGAUGUUAACUUUGUGGUCUAAAGUGUUCCGCUGUCAAGCCGGAUGCCUAAGUAGACCAAAUCUUGUUAUUGAAGUGUUCUGAGCU: 0.189 ratio
UCCUCACCAUCAAACCCGAAUGGAAACUUUAAUGUCGUCAUUAAAGAAGAGCCUCCCGAUGAUUAUGAUUAUGAACUUGGUGAAUGCCCAGAAGGGAUAACAGUGAAACAAGAAGAGACA: 0.403 ratio
AAACUAAUACUUAUCUUUAAAAUAGUAAAUAGGAUUUUAAACAGAGAAUUUUAUCAGUAACCGGUGUCAGUUUUUAAAAAAUUGCUUGUAGGCUGAGCGCGGUGGCUCACGCCUGUAAUC: 3.4 ratio
ACCUCCCAAGUCCUUUAUGAAUGGGAGCAAGGCUUUUCCCAGUCCUUCACGCAAGAGCAAGCCGCUGAUAUUGACGGGCAGUAUGCAAUGACUAGGGCUCAGAGGGUCCGAGCUGCCAUG: 0.0795 ratio
GUUCUUCUCCCAGAAUAUGGAGGCACCAAAGUAGUUCUAGAUGACAAGGAUUAUUUCUUAUUCCGAGAUAGUGACAUUCUUGGAAAGUAUGUCGACUGAAAUCACUGUUGAAAUGGUGUC: 0.279 ratio
UUAUUUUCUAAAAAUUGUUACAUGCAAAUUUAAACCAAGAUUUAUCAGUAAAAGAAAAAAACCGAAUCCUUAAUAAUGUAAAUGUUGUUAUAUAUGCUACCCUGGUGAAAAUAUUUUUAU: 0.897 ratio
GAAGAGGUUCUGCUGGAACAAGCUGGUGUAGAUGCAAGUGAAAGCUUUGAAGAUGCCGGACACUCUUCUGAUGCCAGAGAAAUGCUAAAGCAGUACUACAUUGGUGAUAUCCAUCCGUUG: 0.168 ratio

Set 4 — technique: RNA Bind-n-Seq; form: RNA; matrix: in vitro; concentration: 365 nM; relative to: no-protein control; reading: higher = stronger binding; quantity: RBNS enrichment (R)
Target: RNA binding protein fox-1 homolog 2, RRM domain, GST-SBP tag (RBFOX2, Homo sapiens, UniProt O43251-10, residues 100-194)
Setting: natural RNA segment, single round, ends assumed
Constant ends, left off below: GGGAGUUCUACAGUCCGACGAUC … UGGAAUUCUCGGGUGCCAA
Residues (chain): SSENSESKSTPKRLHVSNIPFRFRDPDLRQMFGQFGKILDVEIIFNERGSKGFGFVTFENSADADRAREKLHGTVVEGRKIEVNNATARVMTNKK
CUCACACGACUAUUUACAUCAAAUCAGAUAUUAACAAGUGAAUGCUUGAGUUGCCUUGUAGAGCUACUUGAAGACCCCAACAUAAGUGCUUCACUGAUCUUAAGUAUUAU: 0.446
UCUCCACAUAGACUCUUGAAAUAGCCAUUUCAGGGGAGGAAAGGGUUGGGGUUUUCUUUGUUUGUUUGUUUGUUUCCCCCUUUACUACCUGUUCUUGUAGAUCUAGCUCC: 11.2
GCCGUGAAGUCAUCACCAUCUACUCCUGAGCCCAGUGUCAUCUUGUGGCCUGGAGUCGAGGUCUUGGCCAGGACAUAACAAGCUGUGGUCUGGGGUAACAGCCUCUUCCC: 0.296
CCGAAUCUCUUUUUGCUUUCGAACUGCUAGUCAAGUGCGUCCACGAGCUGUUUACUAGGGAUCCCUCAUCUGUCCCUCCGGGACCUGGUGCUGCCUCUACCUGACACUCC: 0.213
GACCAAGAAGAGAGGCUUGUUGGAAUCAAUUCUGCACAAUAGCCCAUGCUGUAAGCUCAUAGAAGUCACUGUAACUGUAGUGUGUCUGCUGUUACCUAGAGGGUCUCACC: 0.347
CAAUGAACUAAAUCAGUGGCAUUCUCUAGAUAAUGUGGGGGAAGGUUAGAAUAUUUUCUGGCCUUCUAUGGGGUAGCAACCCAGAAUCAAUCUGAAUUAGUCCUGUUUUG: 0.373
UCAAGCCGAUGCUAGCCACUAGUUUGAUUUUUUUUCUGUUUUAUAGUUUGCGCUGCAUGGUACUUGUGAAGCUUAAAUAUUUUGAGUGUUCUACUGUGUCUAGGAUUGUU: 2.65
UUAGCCCGUUGCCACUGUUCGGGAUUCGAUUUGAAACUCAUCACUAGUAUAGAAGUGGCAUAUCCCACUAGCUUCUACUUUCCUGAUAUAUUUUUACAAAUAACUUUAUU: 0.521
CAGCACAGCAGGGAGUACACGAACUGAUAGAGACCUGUGCUCAGCAGCCAGGUUCUUCAGGUGCUUCUUAAUCAGCCCCUCUGCUCCAGAUGGACCUUUCCCUCCAUGUA: 0.276
UUUGUAAAAUUGUCUGUGAAAUAUAAACAUUAAUAUAUAAAGAAAAACCUUGAAGUGCUGUAUAGUGAAGUAUAAAUUAAUGUUUUAUUGAUUUGUGAAGAAUUUAAGAC: 5.26
UAAGCUGCUCUUUUGGCCUGAACACAUUAGUGAUGACUUCUAUGGCAUGGAAUUUUACCCAUGAUUUCCUUACCACUAGGAUCUACAUUGAUAAAAAAAAUUGAUUAAAU: 0.596
CCAAGAUAUAACCCACCAGUGCCUUUUGUCUUCCUGUCAGCUCUGUCAAUCACGCCUGUCCUCUCACGCCCACACCAAGUGCCCAAAGUGGGGAGGGACAAGAGAUUCUG: 0.552

Some of these lines once more (set 3):
CCCGUCUUGGCUUAUCCACUUUGACUCCUUUGAGCCGUUUGGAGGGGCGGUUUCUGGCCGUUGUGGCUUUUAUGCUUUCAAAGAAUUUCUUCAGUCCAGAGAAUUCCUCCUGGCAGCCCU: 0.221 ratio
UUGGGGUAACGUGCACUGUAAGACGUAUGUAACAUGAUGUUAACUUUGUGGUCUAAAGUGUUCCGCUGUCAAGCCGGAUGCCUAAGUAGACCAAAUCUUGUUAUUGAAGUGUUCUGAGCU: 0.189 ratio
UCCUCACCAUCAAACCCGAAUGGAAACUUUAAUGUCGUCAUUAAAGAAGAGCCUCCCGAUGAUUAUGAUUAUGAACUUGGUGAAUGCCCAGAAGGGAUAACAGUGAAACAAGAAGAGACA: 0.403 ratio
AAACUAAUACUUAUCUUUAAAAUAGUAAAUAGGAUUUUAAACAGAGAAUUUUAUCAGUAACCGGUGUCAGUUUUUAAAAAAUUGCUUGUAGGCUGAGCGCGGUGGCUCACGCCUGUAAUC: 3.4 ratio
ACCUCCCAAGUCCUUUAUGAAUGGGAGCAAGGCUUUUCCCAGUCCUUCACGCAAGAGCAAGCCGCUGAUAUUGACGGGCAGUAUGCAAUGACUAGGGCUCAGAGGGUCCGAGCUGCCAUG: 0.0795 ratio
GUUCUUCUCCCAGAAUAUGGAGGCACCAAAGUAGUUCUAGAUGACAAGGAUUAUUUCUUAUUCCGAGAUAGUGACAUUCUUGGAAAGUAUGUCGACUGAAAUCACUGUUGAAAUGGUGUC: 0.279 ratio
